Measured values gathered from unrelated publications.
Lines come from different studies, so protocols differ. Values joined by “and” are separate records of one study, mostly repeats; a detail may differ. ± gives the spread as reported.

SMILES | assay | test system | setting | scale | endpoint | value
CC(C)(C)c1cc(C(C)(C)C)c(NC(=O)c2c[nH]c3ccccc3c2=O)cc1O |  | healthy subjects, plasma | oral, 50 mg once daily, together with: tezacaftor 25 mg, itraconazole 200 mg | relative to: with over without itraconazole | AUC ratio | 15.6
CC#CC(=O)N1CCC[C@H]1c1nc(-c2ccc(C(=O)Nc3ccccn3)cc2)c2c(N)nccn12 |  | mild hepatic impairment (Child-Pugh A), plasma | oral, 50 mg single | relative to: healthy subjects | AUC increase | 1.46 fold and 1.5 fold
C[C@@H](Oc1ccc(S(C)(=O)=O)cc1C(=O)N1C[C@@H]2C[C@]2(c2cc(C(F)(F)F)on2)C1)C(F)(F)F |  | healthy young subjects, plasma | oral, 25 mg, fed |  | AUC at steady state | 12.2 µM·h
Nc1nc(NC2CC2)c2ncn([C@H]3C=C[C@@H](CO)C3)c2n1 |  | HIV-infected children and adolescents, Tanner stage 3-5, plasma | oral, 8 mg/kg, 0 to 8 h |  | AUC | 8900 ng·h/mL
CNCc1ccc(-c2[nH]c3cc(F)cc4c3c2CCNC4=O)cc1 | noncompartmental analysis | patients, plasma | oral, 600 mg twice daily, day 1, together with: bevacizumab infusion |  | AUC at steady state | 14900 ± 2600 ng·h/mL
Cc1cc(=O)n(-c2ccccc2)n1C |  | perfused human placental cotyledon | 531 µM, 1 to 120 min, maternal to fetal, together with: barusiban 1.2 µM |  | AUC of placental transfer | 3510 ± 988 %·min
O=C1CCc2ccc(OCCCCN3CCN(c4cccc(Cl)c4Cl)CC3)cc2N1 |  | healthy Japanese men, CYP2D6 IM, plasma | oral, 3 mg aripiprazole single, together with: paroxetine 20 mg/day |  | AUC | 1700 ± 192 ng·h/mL
Cn1cnc2c(F)c(Nc3ccc(Br)cc3Cl)c(C(=O)NOCCO)cc21 |  | healthy subjects, plasma | oral, 50 mg single dose |  | AUC | 2620 ng·h/mL
CO[C@H]1C[C@@H]2CC[C@@H](C)[C@@](O)(O2)C(=O)C(=O)N2CCCC[C@H]2C(=O)O[C@H]([C@H](C)C[C@@H]2CC[C@@H](OCCO)[C@H](OC)C2)CC(=O)[C@H](C)/C=C(\C)[C@@H](O)[C@@H](OC)C(=O)[C@H](C)C[C@H](C)/C=C/C=C/C=C/1C | HPLC-MS/MS | responder patients, whole blood | dose not given, cycle 1 day 15 | relative to: partial or non-responders | AUC at steady state | increased
CN1CCN(c2ccc3nc(-c4c(N)c5c(F)cccc5[nH]c4=O)[nH]c3c2)CC1 |  | patients, plasma | oral, 300 mg daily 5 days on 2 off, day 19, AUC 0-24 h maximum, together with: gemcitabine and capecitabine |  | AUC | 4260 ng·h/mL
CC(C)(CO)c1cc2cc(NC(=O)C3(c4ccc5c(c4)OC(F)(F)O5)CC3)c(F)cc2n1C[C@@H](O)CO |  | healthy subjects, plasma | oral, 25 mg once daily, together with: ivacaftor 50 mg, itraconazole 200 mg | relative to: with over without itraconazole | AUC ratio | 4.02
COc1cc2c(cc1OC)CN(CCc1ccc(NC(=O)c3cc(OC)c(OC)cc3NC(=O)c3cnc4ccccc4c3)cc1)CC2 |  | human, plasma | intravenous infusion, 8 mg/kg, up to 24 h after infusion end |  | AUC | 23600 ng·h/mL

Excerpt of the above:
SMILES | assay | test system | setting | scale | endpoint | value
CNCc1ccc(-c2[nH]c3cc(F)cc4c3c2CCNC4=O)cc1 | noncompartmental analysis | patients, plasma | oral, 600 mg twice daily, day 1, together with: bevacizumab infusion |  | AUC at steady state | 14900 ± 2600 ng·h/mL
